Results pooled from the literature.
A part holds a random share of what one study measured. Several values in a cell are separate wells, animals, samples, runs or records.

Study 1
Target: chymotrypsin
Effect on: enzyme activity
Mode: inhibitor
Concentration: 10 µM
Setting: with DTT
With `O=C1OC2(c3ccccc31)c1cc(Br)c(O)c(Br)c1Oc1c2cc(Br)c(O)c1Br` the inhibition was 13.6%.
`Oc1ccc(C2CNCCc3c2cc(O)c(O)c3Cl)cc1` (stereo not shown) gave an inhibition of 4.1%.
`O=C1OC2(c3cc(I)c(O)c(I)c3Oc3c2cc(I)c(O)c3I)c2c(Cl)c(Cl)c(Cl)c(Cl)c21` gave an inhibition of -3%.
`S=C=Nc1cccc(NC(=S)NCCCCNC(=S)Nc2cccc(N=C=S)c2)c1` gave an inhibition of 6%.
`CCN1CCN(C(c2ccc(C(F)(F)F)cc2)c2ccc3cccnc3c2O)CC1` (stereo not shown) has an inhibition of 3.7%.
For `COc1cc(N(C)C)cc(CN(C)CCc2ccc([N+](=O)[O-])cc2)c1O`, the inhibition was 10.8%.
The inhibition of `CC(C)(C)NC(=O)N[C@H](C(=O)N1C[C@H]2[C@@H]([C@H]1C(=O)NC(CC1CCC1)C(=O)C(N)=O)C2(C)C)C(C)(C)C` (stereo partly shown) is reported as 99.9%.
`CC1=C(/C=C/C(C)=C/C=C/C(C)=C/C(=O)O)C(C)(C)CCC1` gave an inhibition of 0.8%.
With `Cc1ccc(S(=O)(=O)N[C@@H](Cc2ccccc2)C(=O)CCl)cc1` the inhibition was 39.6%.
`O=C(/C=C/c1ccc(O)c(O)c1)O[C@H](Cc1ccc(O)c(O)c1)C(=O)O` has an inhibition of -0.372%.
`CC(Cc1ccc(O)c(O)c1)C(C)Cc1ccc(O)c(O)c1` (stereo not shown) has an inhibition of 4%.
`N#CSc1cc(SC#N)c(N)nc1N` gave an inhibition of 4.6%.
For `CN1CCN(C2=C(Cl)C(=O)N(c3ccc(Cl)c(Cl)c3)C2=O)CC1`, the inhibition was 9.7%.
`O=C1C(=Cc2cccnc2)C(=O)c2ccccc21` has an inhibition of 9%.
The inhibition of `Cc1cc(C)cc(N2C(=O)CC(Sc3nnc[nH]3)C2=O)c1` (stereo not shown) is reported as 2.9%.
`O=C(O)/C(S)=C/c1ccc(I)cc1` gave an inhibition of 17.2%.
For `Cc1ccccc1N(C)C(=O)c1ccc([S+]([O-])c2nccs2)c([N+](=O)[O-])c1` (stereo not shown), the inhibition was 0.131%.
`COc1ccc2nc(S)[nH]c2c1` gave an inhibition of 8.5%.
With `O=C(CC1Sc2ncnn2C1=O)Nc1ccc(Br)cc1` (stereo not shown) the inhibition was 8.4%.
With `CC(C)(C)OC(=O)NCCc1nnc(S(=O)(=O)Cc2ccc(Cl)cc2Cl)o1` the inhibition was 103%.
`CC(C)C[C@@H](C=O)NC(=O)[C@H](CC(C)C)NC(=O)[C@H](CC(C)C)NC(=O)OCc1ccccc1` gave an inhibition of 2.5% and 7.6%.
With `COc1nc2ccc(Br)cc2cc1[C@@H](c1ccccc1)[C@@](O)(CCN(C)C)c1cccc2ccccc12` the inhibition was 7.8%.
`CNc1nc(Nc2cn(C(C)(C)C#N)nc2C)ncc1C(F)(F)F` gave an inhibition of 4.6%.
The inhibition of `c1ccc2sc(SSc3nc4ccccc4s3)nc2c1` is reported as 5%.
For `NC(Cc1cc(O)c(O)cc1O)C(=O)O` (racemic), the inhibition was 3%.

Study 2
Cell line: HEK-293T
Effect on: pseudovirus infection
Technique: FDA-approved drug library counter-screen
Organism: VSV pseudotyped with VSV-G
Concentration: 10 µM
Time: 16 h
Relative to: vehicle-treated
With `C#C[C@]1(O)CC[C@H]2[C@@H]3CCC4=CC(=O)CC[C@@H]4[C@H]3CC[C@@]21CC` the GFP-positive cells was 101%.
For `CCOC(=O)[C@H](CCc1ccccc1)N[C@@H](C)C(=O)N1Cc2ccccc2C[C@H]1C(=O)O`, the GFP-positive cells was 110%.
`N[C@@H](C(=O)N[C@@H]1C(=O)N2C(C(=O)O)=C(Cl)CS[C@H]12)c1ccccc1` has a GFP-positive cells of 92.7%.
With `CCOC(=O)CC(SP(=S)(OC)OC)C(=O)OCC` (stereo not shown) the GFP-positive cells was 115%.
`CC[C@H](C)C(=O)O[C@H]1C[C@H](O)C=C2C=C[C@H](C)[C@H](CC[C@@H](O)C[C@@H](O)CC(=O)O)[C@H]21` gave a GFP-positive cells of 110%.
With `CC(=O)Oc1ccccc1C(=O)Nc1ncc([N+](=O)[O-])s1` the GFP-positive cells was 2.18%.
The GFP-positive cells of `C[C@]12CC[C@H]3[C@@H](CCC4=CC(=O)CC[C@@]43C)[C@@H]1CC[C@@H]2O` is reported as 99.4%.
With `COC(=O)CCc1ccc(OCC(O)CNC(C)C)cc1` (stereo not shown) the GFP-positive cells was 95.5%.
With `CN1CCc2nc(C(=O)N[C@@H]3C[C@@H](C(=O)N(C)C)CC[C@@H]3NC(=O)C(=O)Nc3ccc(Cl)cn3)sc2C1` the GFP-positive cells was 111%.
`CC1=C(CC(=O)O)c2cc(F)ccc2/C1=C\c1ccc([S+](C)[O-])cc1` (stereo not shown) gave a GFP-positive cells of 107%.
`CC(=O)OCC(CCn1cnc2cnc(N)nc21)COC(C)=O` gave a GFP-positive cells of 111%.
For `CC1(C)O[C@@H]2C[C@H]3[C@@H]4CCC5=CC(=O)C=C[C@]5(C)[C@@]4(F)[C@@H](O)C[C@]3(C)[C@]2(C(=O)CO)O1`, the GFP-positive cells was 103%.
For `CC[C@H]1OC(=O)[C@H](C)[C@@H](O[C@H]2C[C@@](C)(OC)[C@@H](O)[C@H](C)O2)[C@H](C)[C@@H](O[C@@H]2O[C@H](C)C[C@H](N(C)C)[C@H]2O)[C@](C)(OC)C[C@@H](C)C(=O)[C@H](C)[C@@H](O)[C@]1(C)O`, the GFP-positive cells was 106%.
`C[N+](C)(C)CCOC(N)=O` gave a GFP-positive cells of 99%.
For `CCOC(=O)C1=C[C@@H](OC(CC)CC)[C@H](NC(C)=O)[C@@H](N)C1`, the GFP-positive cells was 107%.
For `CC1=CC(=O)c2ccccc2C1=O`, the GFP-positive cells was 122%.
`C[C@]12C=CC(=O)C=C1CC[C@@H]1[C@@H]2[C@@H](O)C[C@@]2(C)[C@H]1CC[C@]2(O)C(=O)CO` has a GFP-positive cells of 89.5%.
With `CC(C)(C)C(=O)OCOP(=O)(COCCn1cnc2c(N)ncnc21)OCOC(=O)C(C)(C)C` the GFP-positive cells was 106%.
The GFP-positive cells of `C[N+]1(C)[C@@H]2CC[C@H]1C[C@@H](OC(=O)C(O)c1ccccc1)C2` (stereo partly shown) is reported as 115%.
For `O=C1Nc2ccc(Cl)cc2[C@@](C#CC2CC2)(C(F)(F)F)O1`, the GFP-positive cells was 87.2%.

Study 3
Cell line: mouse MPNST tumor cells
Technique: high-content nuclear imaging
Refers to: cell number
Concentration: 10 µM
Time: 12 h
Setting: mean of 2 replicates
Relative to: plate mean
Reading: higher = more cells
The nuclei count of `CCOc1ccccc1-n1c(C(C)N2CCN(C(=O)COc3ccc(Cl)cc3)CC2)nc2ccccc2c1=O` (stereo not shown) is reported as -6.31 z-score.
For `CN1C[C@H](CNC(=O)OCc2ccccc2)C[C@@H]2c3cccc4c3c(cn4C)C[C@H]21`, the nuclei count was 0.712 z-score and -3.82 z-score.
For `C[N+]1(C)CCCC(OC(=O)C(O)(c2ccccc2)c2ccccc2)C1` (stereo not shown), the nuclei count was 0.65 z-score.
`CC(C)(C)c1cc(C(C)(C)C)c2c(c1)C(O)(C(F)(F)F)C(=O)O2` (racemic) has a nuclei count of 1.7 z-score.
For `CCCCCn1cc(C(=O)NC23CC4CC(CC(C4)C2)C3)c(=O)c2cc(-c3ccccc3)ccc21`, the nuclei count was 2.11 z-score.
`COc1cc2c(c(OC)c1OC)-c1ccc(OC)c(=O)cc1[C@@H](NC(C)=O)CC2` has a nuclei count of -4.15 z-score.

Study 4
Target: DNA polymerase theta, ATPase domain (POLQ, Homo sapiens, UniProt O75417)
Chain of UniProt O75417 (whole entry, unmodified, looked up): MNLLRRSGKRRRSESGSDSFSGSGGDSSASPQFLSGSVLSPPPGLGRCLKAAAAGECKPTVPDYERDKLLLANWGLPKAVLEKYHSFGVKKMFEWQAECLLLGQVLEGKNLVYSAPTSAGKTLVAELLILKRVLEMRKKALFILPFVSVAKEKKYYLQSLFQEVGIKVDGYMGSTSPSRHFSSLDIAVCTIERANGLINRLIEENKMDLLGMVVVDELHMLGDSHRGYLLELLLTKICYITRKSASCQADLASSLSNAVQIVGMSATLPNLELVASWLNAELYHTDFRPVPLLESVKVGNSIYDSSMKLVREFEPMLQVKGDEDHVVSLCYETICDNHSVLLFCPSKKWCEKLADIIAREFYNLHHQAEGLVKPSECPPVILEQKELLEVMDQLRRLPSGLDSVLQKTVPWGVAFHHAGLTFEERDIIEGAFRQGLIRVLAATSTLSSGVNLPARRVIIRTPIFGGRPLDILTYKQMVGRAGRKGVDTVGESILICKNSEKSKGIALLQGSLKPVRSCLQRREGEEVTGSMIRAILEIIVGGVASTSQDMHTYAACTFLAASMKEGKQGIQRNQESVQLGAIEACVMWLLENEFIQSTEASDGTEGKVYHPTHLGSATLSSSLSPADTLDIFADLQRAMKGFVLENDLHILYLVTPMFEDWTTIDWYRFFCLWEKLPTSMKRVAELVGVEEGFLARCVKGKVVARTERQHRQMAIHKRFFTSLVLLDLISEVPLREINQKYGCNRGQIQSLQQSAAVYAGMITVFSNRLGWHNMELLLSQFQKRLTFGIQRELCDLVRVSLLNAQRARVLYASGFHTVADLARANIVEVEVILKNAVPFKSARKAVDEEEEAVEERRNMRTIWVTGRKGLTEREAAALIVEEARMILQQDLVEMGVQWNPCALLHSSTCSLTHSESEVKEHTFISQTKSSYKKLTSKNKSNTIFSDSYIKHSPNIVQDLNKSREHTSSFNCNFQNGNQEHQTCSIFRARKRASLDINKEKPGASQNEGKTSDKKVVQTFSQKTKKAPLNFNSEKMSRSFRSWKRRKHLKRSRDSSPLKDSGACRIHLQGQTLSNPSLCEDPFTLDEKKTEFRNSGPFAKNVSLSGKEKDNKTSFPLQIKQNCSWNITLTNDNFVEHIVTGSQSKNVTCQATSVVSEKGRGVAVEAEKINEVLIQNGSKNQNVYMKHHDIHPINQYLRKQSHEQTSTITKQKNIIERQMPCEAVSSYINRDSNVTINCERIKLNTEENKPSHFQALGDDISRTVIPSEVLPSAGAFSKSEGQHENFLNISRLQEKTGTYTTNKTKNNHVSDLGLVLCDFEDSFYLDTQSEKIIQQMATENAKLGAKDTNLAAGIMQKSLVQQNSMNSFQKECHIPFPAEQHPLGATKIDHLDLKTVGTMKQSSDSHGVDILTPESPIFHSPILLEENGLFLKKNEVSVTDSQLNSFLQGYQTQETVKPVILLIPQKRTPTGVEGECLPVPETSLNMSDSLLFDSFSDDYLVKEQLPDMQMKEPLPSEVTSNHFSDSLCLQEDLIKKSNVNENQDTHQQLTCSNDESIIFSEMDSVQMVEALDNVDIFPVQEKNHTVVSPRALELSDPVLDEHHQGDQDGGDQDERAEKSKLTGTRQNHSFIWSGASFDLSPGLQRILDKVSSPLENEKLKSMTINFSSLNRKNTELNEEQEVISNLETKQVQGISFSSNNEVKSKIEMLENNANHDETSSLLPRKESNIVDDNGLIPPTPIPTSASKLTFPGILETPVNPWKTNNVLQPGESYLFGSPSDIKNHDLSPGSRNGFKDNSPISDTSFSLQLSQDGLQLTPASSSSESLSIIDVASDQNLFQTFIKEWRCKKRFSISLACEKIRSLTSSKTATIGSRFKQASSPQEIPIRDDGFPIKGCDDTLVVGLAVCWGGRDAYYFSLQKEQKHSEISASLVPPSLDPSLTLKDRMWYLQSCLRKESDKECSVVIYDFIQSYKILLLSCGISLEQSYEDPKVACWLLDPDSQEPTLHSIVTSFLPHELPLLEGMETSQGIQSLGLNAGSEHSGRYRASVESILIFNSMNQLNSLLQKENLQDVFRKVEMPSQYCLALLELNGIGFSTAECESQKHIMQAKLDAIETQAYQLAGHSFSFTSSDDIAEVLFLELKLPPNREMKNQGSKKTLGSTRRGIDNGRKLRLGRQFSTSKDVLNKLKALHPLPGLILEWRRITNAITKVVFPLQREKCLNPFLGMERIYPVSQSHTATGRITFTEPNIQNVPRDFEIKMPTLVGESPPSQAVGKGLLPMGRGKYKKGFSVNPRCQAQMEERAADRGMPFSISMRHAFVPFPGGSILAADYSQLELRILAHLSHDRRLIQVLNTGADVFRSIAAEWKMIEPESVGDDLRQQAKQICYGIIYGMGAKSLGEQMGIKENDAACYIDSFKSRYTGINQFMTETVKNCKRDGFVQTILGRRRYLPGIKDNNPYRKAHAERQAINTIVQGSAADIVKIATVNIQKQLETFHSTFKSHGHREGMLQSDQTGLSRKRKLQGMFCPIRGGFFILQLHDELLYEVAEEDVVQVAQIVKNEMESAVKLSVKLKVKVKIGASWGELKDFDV
Effect on: enzyme activity
Mode: inhibitor
Concentration: 77 µM
Relative to: untreated
`N=C(N)NN` has a remaining activity of 90.3%.
`O=C(O)CC[N+](=O)[O-]` has a remaining activity of 103%.
The remaining activity of `c1ccc2c(c1)sc1ccccc12` is reported as 94.8%.
The remaining activity of `COc1cc2c(cc1O)[C@@H]1Cc3ccc(OC)c(O)c3CN1CC2` is reported as 95.3%.

For quick reference, copied from above (study 2):
`N[C@@H](C(=O)N[C@@H]1C(=O)N2C(C(=O)O)=C(Cl)CS[C@H]12)c1ccccc1` has a GFP-positive cells of 92.7%.
With `CCOC(=O)CC(SP(=S)(OC)OC)C(=O)OCC` (stereo not shown) the GFP-positive cells was 115%.
`CC[C@H](C)C(=O)O[C@H]1C[C@H](O)C=C2C=C[C@H](C)[C@H](CC[C@@H](O)C[C@@H](O)CC(=O)O)[C@H]21` gave a GFP-positive cells of 110%.
With `CC(=O)Oc1ccccc1C(=O)Nc1ncc([N+](=O)[O-])s1` the GFP-positive cells was 2.18%.
The GFP-positive cells of `C[C@]12CC[C@H]3[C@@H](CCC4=CC(=O)CC[C@@]43C)[C@@H]1CC[C@@H]2O` is reported as 99.4%.
With `COC(=O)CCc1ccc(OCC(O)CNC(C)C)cc1` (stereo not shown) the GFP-positive cells was 95.5%.
